Experimental data pooled from the literature.
Every numbered part comes from another study and shows a few of its results, in no order. Substitutions count along the parent as printed.

Set 1
Target: Histone acetyltransferase KAT6A, winged helix 2, GST fusion (KAT6A, Homo sapiens, UniProt Q92794, residues 85-181)
Method: protein binding microarray
Form: double-stranded DNA, one strand shown
Medium: in vitro
Concentration: not given
Notes: 8-mer, flanks averaged, mean of 2 arrays, mostly near background
Baseline: not given
Reading: higher = stronger binding
Target sequence (chain): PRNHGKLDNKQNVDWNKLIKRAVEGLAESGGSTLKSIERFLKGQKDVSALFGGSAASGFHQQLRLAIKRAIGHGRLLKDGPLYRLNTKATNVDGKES
`CCCGAGCC` gave an E-score of 0.134.
`GTAGTCAA` gave an E-score of -0.0608.
The E-score of `GTGCACTA` is reported as -0.0505.
`CTCGGAGA` has an E-score of 0.0998.
`CGGCTGAA` has an E-score of 0.103.
`AATGAATT` has an E-score of 0.103.
The E-score of `ACGTTCGA` is reported as -0.172.
With `AGTTGTCC` the E-score was 0.013.
The E-score of `GCGCGCCA` is reported as 0.248.
With `CATGTCGG` the E-score was 0.171.
`CTATTGTC` has an E-score of -0.147.
`CCCATACC` has an E-score of -0.127.
`AGGAGAGC` has an E-score of 0.0365.
For `AATCGAGC`, the E-score was -0.0319.
`GATATGCC` gave an E-score of -0.0461.
For `AACATTTA`, the E-score was -0.131.
`ATAGGGCC` gave an E-score of -0.0149.
For `CCGATTTA`, the E-score was 0.075.
For `AAGACCAA`, the E-score was 0.00779.
The E-score of `GACTCGGA` is reported as 0.0819.
With `ATTTCGGC` the E-score was 0.0975.
`CCTGTAGA` gave an E-score of -0.0506.
With `CTTGTGTA` the E-score was -0.0842.

Set 2
Target: RNA binding protein fox-1 homolog 2, RRM domain, GST-SBP tag (RBFOX2, Homo sapiens, UniProt O43251-10, residues 100-194)
Method: RNA Bind-n-Seq
Form: RNA
Medium: in vitro
Concentration: 365 nM
Notes: natural RNA segment, single round, ends assumed
Baseline: no-protein control
Reading: higher = stronger binding
Construct (chain): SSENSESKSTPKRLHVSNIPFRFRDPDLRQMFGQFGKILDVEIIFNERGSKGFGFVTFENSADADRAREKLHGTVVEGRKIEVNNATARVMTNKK
`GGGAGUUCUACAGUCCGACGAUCCCUAGCAAUAAGGAGCUCUGGAGAGCCUGCACCUGCCUCCCGCUCGCCUAUAUCUGCUGCCCAGAGGCCUGUCUCGCACAGGGGUCUCGCCACUGCCAAAGACUCCCAGGUGGAAUUCUCGGGUGCCAA`: “RBNS enrichment (R)” 2.12.
For `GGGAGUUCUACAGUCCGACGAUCCUCUGCCCUCCCUCCCCCGAAGGUCUCUGUGGUGAUGACCGCUCUCCCCUGCCCCUCCCCGCUUCCUGACCUCUGAAGAGGUUGGGAAGUGACCAUUUGGAUGUCUGGGCUGGAAUUCUCGGGUGCCAA`, “RBNS enrichment (R)” read 0.491.
`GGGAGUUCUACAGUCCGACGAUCGGUUUUUGUCGCUUUACAUUGCUUCCUAGUUUACAGCAUGAUGCAAAUGAUUUUCUAACUUAGUGUUAGGAGAAAUUAUUUUCCAUCUUUAACCUCUUAGUUGUCUAAGAUGGAAUUCUCGGGUGCCAA` — result for “RBNS enrichment (R)”: 1.92.
Under “RBNS enrichment (R)”, `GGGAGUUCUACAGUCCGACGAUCUCCCUCUGAGAGUUGUGAGGAUGUGUAACAAGUAUUUUCUUCUAUCGUGCCUGCCAGGGCUGAAGCUGCCUGGUAUCCAGGAGGGGAAUGCUGGUAUCCCCAUAUGUCUGUGGAAUUCUCGGGUGCCAA` is recorded as 1.87.
`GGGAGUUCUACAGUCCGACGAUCUUUGGCCUUGAACAAAACCAAGUCCACUGGGGACAGAGGCAGGGGCAAGUGGCUCUCCCCAUUACCUUCUCAAGACCUCAGUGGGAGCACCAGCCAAUGGUACCAUCGGCUGGAAUUCUCGGGUGCCAA` — result for “RBNS enrichment (R)”: 0.346.
For `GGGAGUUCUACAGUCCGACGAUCGGAAAGGAUGGUUUACAUAGCAGUUCCAGCCUCCUUUUGCUUUGGCCAGUUGGCCUUCUCACUUUGAUAGUUUAACUCAGGUACCCAGUCUUCACUCCAUCCCCAGGUGCUGGAAUUCUCGGGUGCCAA`, “RBNS enrichment (R)” read 0.34.
Under “RBNS enrichment (R)”, `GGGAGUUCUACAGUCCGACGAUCAUGUUCUACUUGUCAGGGCUGGAACUAUUGUAUAGAAGAUAAUAUGAUUGUGACUUCUAGUUCUUUUCUAGAGGAUGCUGCUAGAAAAUGGUUUUGCUUUGUAUUUUAUAUGGAAUUCUCGGGUGCCAA` is recorded as 9.29.
`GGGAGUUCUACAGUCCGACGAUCAGUUCACUGUUGAUCCUGUUGUAGGUGGUUGGGCUGCUGGUCACCAUGCCACCACUUGGGUUUUUUCCAUGGGAAGCAGCCUGCUGGGUGUGCAAGGCCGAGUGAUGGCUUGGAAUUCUCGGGUGCCAA`: “RBNS enrichment (R)” 0.412.
For `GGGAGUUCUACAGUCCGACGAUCAUGGGAGACCCAAGGGGAACACAUGCUGCCUCUGCUGAAAGACCCUGGGUUUUUCUUGGAAGAAAGGACUCUAGGGUGGAUGGUACCAGGCCUUCAGGGUUAGAUCAUCUUGGAAUUCUCGGGUGCCAA`, “RBNS enrichment (R)” read 0.283.
Under “RBNS enrichment (R)”, `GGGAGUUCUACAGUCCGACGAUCUAAAGAAAUGUGCCUAAAGUAUUCUUUUCUGGAAUAAUUUGUAUGUUCUUUUAUAAAGAUAUGGAUUGGUUUACCAGCUGUUUAAAAAAAAAAACAUGUGUCCUAGCUGGUGGAAUUCUCGGGUGCCAA` is recorded as 0.713.
`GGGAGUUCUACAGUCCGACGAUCCAAGAACUCUGCUUCUUGCUUUGCAGAGUGCCAUGGUCAUGUCAUUCUGAGGUCACAUAACACAUAAAAUUAGUUUCUAUGAGUGUAUACCAUUUAAAGAAUUUUUUUUUUGGAAUUCUCGGGUGCCAA`: “RBNS enrichment (R)” 0.632.
`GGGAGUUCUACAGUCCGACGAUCUUGCUACAAGCUAUAGCUAAUGUGCUGAGCUUGUGCCUUGGUGAUUGAUUGAUUGAUUGACUGAUUGUUUUAACUGAUUACUGUAGAUCAACCUGAUGAUUUGUUUGUUUUGGAAUUCUCGGGUGCCAA` — result for “RBNS enrichment (R)”: 2.5.

Set 3
Target: ABI1, truncated, D143A, DHFR fusion (Arabidopsis thaliana)
Method: DHFR PCA, deep sequencing
Medium: yeast
Notes: methotrexate growth selection, single substitutions
Together with: (+)-ABA 200 µM
Baseline: wild-type fitted maximum
Reading: higher = stronger binding
Starting sequence: PYL1, truncated, DHFR fusion (Arabidopsis thaliana); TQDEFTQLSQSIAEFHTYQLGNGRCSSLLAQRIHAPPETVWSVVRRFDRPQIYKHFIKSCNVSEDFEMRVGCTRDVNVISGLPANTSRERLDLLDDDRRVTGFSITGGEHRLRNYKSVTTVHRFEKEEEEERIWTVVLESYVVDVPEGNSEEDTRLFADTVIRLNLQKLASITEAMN; partner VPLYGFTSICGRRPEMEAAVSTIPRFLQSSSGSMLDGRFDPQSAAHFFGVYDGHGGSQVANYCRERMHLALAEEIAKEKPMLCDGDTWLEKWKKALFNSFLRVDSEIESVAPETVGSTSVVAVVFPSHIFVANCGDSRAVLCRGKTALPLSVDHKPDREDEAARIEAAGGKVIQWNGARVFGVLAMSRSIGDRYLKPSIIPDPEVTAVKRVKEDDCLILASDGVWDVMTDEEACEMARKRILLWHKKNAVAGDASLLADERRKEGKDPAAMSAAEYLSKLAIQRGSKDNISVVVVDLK
For `E147Y`, “relative binding score” read 91.2%.
`R46A` — result for “relative binding score”: 96.9%.
For `V136K`, “relative binding score” read 31.2%.
For `K116C`, “relative binding score” read 93.3%.
`K168M` — result for “relative binding score”: 88.7%.
For `Y141D`, “relative binding score” read 2.36%.
For `I133P`, “relative binding score” read 116%.
`Q31W` — result for “relative binding score”: 69%.
`I33F`: “relative binding score” 9.93%.
`A170I`: “relative binding score” 0.666%.
`S87T` — result for “relative binding score”: 78.2%.
`D65Y`: “relative binding score” 85%.
`C25F` — result for “relative binding score”: 72.6%.
`G108D` — result for “relative binding score”: 45.9%.
`G102T`: “relative binding score” 27.2%.

Set 4
Target: ATF5, bZIP domain (human)
Method: DHFR protein complementation
Medium: yeast
Notes: single substitutions, most at no-binding floor
Baseline: wild-type JUN-FOS pair
Reading: higher = stronger binding
Starting sequence: JUN, bZIP domain (human); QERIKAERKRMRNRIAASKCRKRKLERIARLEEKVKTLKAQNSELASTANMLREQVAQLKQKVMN; partner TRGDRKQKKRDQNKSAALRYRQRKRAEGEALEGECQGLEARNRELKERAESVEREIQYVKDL
The binding fitness of `E44H` is reported as -1.49 natural log.
With `R53N` the binding fitness was -1.44 natural log.
`R30M` gave a binding fitness of -1.41 natural log.
The binding fitness of `A57W` is reported as -1.39 natural log.
`E44I` has a binding fitness of -1.43 natural log.
`R30G` has a binding fitness of -1.33 natural log.
`M51G` gave a binding fitness of -1.29 natural log.
`A49L` gave a binding fitness of -1.33 natural log.
With `L38F` the binding fitness was -1.56 natural log.
`A46S` has a binding fitness of -1.35 natural log.

Set 5
Target: CCND1, cyclin fold, Cln2 fusion (human)
Method: yeast growth competition, sequencing
Medium: yeast
Notes: strong parent motif
Baseline: not given
Reading: higher = stronger binding
Starting sequence: PKN2 docking peptide (human); VSAVQKLDFSDTM; partner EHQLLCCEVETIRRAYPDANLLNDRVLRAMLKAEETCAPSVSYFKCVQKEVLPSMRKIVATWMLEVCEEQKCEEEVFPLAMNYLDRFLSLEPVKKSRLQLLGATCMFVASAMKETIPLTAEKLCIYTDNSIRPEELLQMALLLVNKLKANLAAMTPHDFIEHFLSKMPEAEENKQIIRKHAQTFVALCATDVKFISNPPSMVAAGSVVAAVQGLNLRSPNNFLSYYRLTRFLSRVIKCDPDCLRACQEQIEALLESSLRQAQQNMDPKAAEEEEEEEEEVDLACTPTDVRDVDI
For `F9T`, “normalised enrichment score” read 0.141.
For `T12C`, “normalised enrichment score” read 2.3.
For `A3P`, “normalised enrichment score” read 2.4.
`T12I` — result for “normalised enrichment score”: 2.29.
`M13H` — result for “normalised enrichment score”: 1.96.
`D8S`: “normalised enrichment score” 0.976.
For `D11N`, “normalised enrichment score” read 1.86.
For `A3M`, “normalised enrichment score” read 0.262.
For `F9D`, “normalised enrichment score” read 0.0899.
`V1Y`: “normalised enrichment score” 2.52.
Under “normalised enrichment score”, `V4I` is recorded as 2.75.
For `D11I`, “normalised enrichment score” read 1.04.
For `D8E`, “normalised enrichment score” read 1.03.
For `V4R`, “normalised enrichment score” read 1.22.
`V4G`: “normalised enrichment score” -0.17.
Under “normalised enrichment score”, `T12F` is recorded as 2.32.
Under “normalised enrichment score”, `A3N` is recorded as 0.335.
`D8L` — result for “normalised enrichment score”: 0.478.
`S10D` — result for “normalised enrichment score”: 1.62.
Under “normalised enrichment score”, `D11L` is recorded as 2.07.
For `D8G`, “normalised enrichment score” read 0.331.
`V1H` — result for “normalised enrichment score”: 2.43.
`D8F`: “normalised enrichment score” 0.334.
For `V4D`, “normalised enrichment score” read 0.573.
Under “normalised enrichment score”, `A3K` is recorded as 0.548.

For quick reference, copied from above (set 1):
`ATAGGGCC` gave an E-score of -0.0149.
For `CCGATTTA`, the E-score was 0.075.
For `AAGACCAA`, the E-score was 0.00779.
The E-score of `GACTCGGA` is reported as 0.0819.
With `ATTTCGGC` the E-score was 0.0975.
`CCTGTAGA` gave an E-score of -0.0506.
With `CTTGTGTA` the E-score was -0.0842.
